Measured values gathered from unrelated publications.
Every numbered part comes from another study and shows a few of its results, in no order.

Block 1
Target: Replicase polyprotein 1ab, polymerase (rep, Severe acute respiratory syndrome coronavirus 2, UniProt P0DTD1)
Observed: enzyme activity
Action: inhibitor
Tested at: 20 µM
Quantity: inhibition
Cc1ncc(NC(=O)c2ccc(CN3CCN(C)CC3)c(C(F)(F)F)c2)cc1Nc1nccc(-c2cccnc2)n1: -4.34%
Clc1cccc(Cl)c1CSc1nnc(-c2cnccn2)s1: 0.93%
CC(C)N(C[C@H]1O[C@@H](n2cnc3c(N)ncnc32)[C@H](O)[C@@H]1O)[C@H]1C[C@@H](CCc2nc3cc(C(C)(C)C)ccc3[nH]2)C1: -7.27%
COc1ccc(-c2sc(NC(=O)C(C)(C)C)nc2C)cc1S(=O)(=O)Nc1ccc(O)cc1: 0.17%
CCC(=O)NO: 55.1%
O=C(O)c1cc(O)c(O)c(O)c1: -3.6%
Cc1c(C(=O)Nc2ccc(N3C[C@@H](C)O[C@@H](C)C3)nc2)cccc1-c1ccc(OC(F)(F)F)cc1: 1.06%
CC(=O)O[C@H]1C[C@@H]2CC[C@@H]3[C@H](CC[C@@]4(C)[C@H]3C[C@H](N3CC[N+](C)(C)CC3)[C@@H]4OC(C)=O)[C@@]2(C)C[C@@H]1N1CC[N+](C)(C)CC1: -1.44%
N[C@@H](C(=O)O)c1nn[nH]n1 (racemic): -7.92%
CN1CCN(CCCN2c3ccccc3Sc3ccc(S(=O)(=O)N(C)C)cc32)CC1: 2.99%
Cc1ccc(C(=O)Nc2ccc(CN3CCN(C)CC3)c(C(F)(F)F)c2)cc1C#Cc1cnc2cccnn12: -1.03%
C[C@]1(O)C[C@@H](c2nc(-c3ccc4ccc(-c5ccccc5)nc4c3)c3c(N)nccn32)C1: 2.13%
COCCN1CCC(C(=O)NO)(S(=O)(=O)c2ccc(Oc3ccc(OC(F)(F)F)cc3)cc2)CC1: -21.5%
Nc1ccc(/N=N/c2ccccc2)c(N)n1: 9.04%
CC(=O)[C@@]1(O)CC[C@H]2[C@@H]3CCC4=CC(=O)CC[C@]4(C)[C@H]3CC[C@@]21C: 0.14%
OC[C@@H](O)[C@@H](O)[C@@H](O)CO: -2.37%
Cc1cc2nc3c(=O)[nH]c(=O)nc-3n(C[C@H](O)[C@H](O)[C@H](O)COP(=O)(O)O)c2cc1C: 16.7%
NCC1(CC(=O)O)CCCCC1: -2.29%
Cn1c(=O)cc(N2CCC[C@@H](N)C2)n(Cc2ccccc2C#N)c1=O: 6.01%
C#Cc1cccc(Nc2ncnc3cc(OC)c(OCCCCCCC(=O)NO)cc23)c1: -4.37%
Fc1ccccc1CNCc1ccc(-c2ccnc3[nH]ccc23)cc1: 5.91%
C=C1/C(=C\C=C2/CCC[C@]3(C)[C@@H]([C@H](C)/C=C/[C@H](C)C(C)(C)O)CC[C@@H]23)C[C@@H](O)C[C@@H]1O: -0.98%
Cc1ccc(NC(=O)C2(c3ccc4c(c3)OC(F)(F)O4)CC2)nc1-c1cccc(C(=O)O)c1: 1.87%

Block 2
Target: Interferon regulatory factor 5, full length, phosphomimetic (IRF5, Homo sapiens, UniProt Q13568-2, residues 1-514, K96S/S451D/S453D/S456D/S462D)
Technique: protein-binding microarray
Form: double-stranded DNA, one strand shown
Medium: in vitro
Tested at: 250 nM
Notes: 60-bp whole probe
Together with: salmon DNA 0.4 mg/ml
Baseline: random background probes
Direction: higher = stronger binding
Quantity: log fluorescence
Shared flanks, not repeated: GCCTAGCAC … GTCTTGATTCGCTTGACGCTGCTG
GACGATATCAGTTTCGATACGTGCTAG: 9.76 z-score
AATATTCTGCTTTGCAATAAGTGCTAG: 0.64 z-score
TTATGACTGGACTTTCGGTTAGTGCTA: 9.27 z-score
TTAGAACTGAGTCTCTATTAGTGCTAG: 0.0809 z-score
TTAGGTATCGGGTATCGGTTAGTGCTA: 6.59 z-score
GACGATATCCGACTGGAGACGTGCTAG: 0.0208 z-score
CTCTGGTTCTTGCTTGGTGTCGTGCTA: -0.3 z-score
GCTATTTTTAGGATGGGCTAGTGCTAG: 0.184 z-score

Block 3
Target: Replicase polyprotein 1ab, main protease (rep, Severe acute respiratory syndrome coronavirus 2, UniProt P0DTD1)
Observed: enzyme activity
Action: inhibitor
Tested at: 20 µM
Notes: hit confirmation, with DTT
Quantity: inhibition
COc1cc(C(=S)N2CCOCC2)ccc1O: -1%
C=C1C(=O)O[C@H]2[C@H]1CC/C(C)=C/CC[C@@]1(C)O[C@@H]21: 89.5%
O=C(CCl)c1ccccc1: 99%

Block 4
Cell line: HEK-293T
Observed: pseudovirus infection
Technique: FDA-approved drug library screen
Organism: VSV pseudotyped with SARS-CoV-2 spike
Tested at: 10 µM
Time: 16 h
Baseline: vehicle-treated
Quantity: GFP-positive cells
Cc1onc(-c2c(Cl)cccc2Cl)c1C(=O)N[C@@H]1C(=O)N2[C@@H]1SC(C)(C)[C@@H]2C(=O)O: 98.5%
CC(C)NCC(O)c1ccc(NS(C)(=O)=O)cc1 (stereo not drawn): 103%
N[C@@H](Cc1ccc(N(CCCl)CCCl)cc1)C(=O)O: 77.5%

Block 5
Target: Sox-I, HMG box (Salpingoeca helianthica)
Technique: Spec-seq
Form: double-stranded DNA, one strand shown
Medium: in vitro
Tested at: not given
Notes: whole probe, mean of replicates
Baseline: not given
Direction: lower = stronger binding
Quantity: relative binding energy
Construct (chain): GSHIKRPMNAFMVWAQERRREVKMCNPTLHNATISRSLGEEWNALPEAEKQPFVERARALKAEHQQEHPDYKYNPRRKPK
GAGTCGTCTCGTCAGCACCATTCCGCCGTAGAGCACTCAGGTC: 0.994 ln ratio
GAGTCGTCTCGTCAGCACCAGGGTTCCGTAGAGCACTCAGGTC: 1.05 ln ratio
GAGTCGTCTCGTCAGCACCATTCTACCGTAGAGCACTCAGGTC: 0.0334 ln ratio

Block 6
Target: Fragile X messenger ribonucleoprotein 1, C-terminal low-complexity region (Fmr1, Mus musculus, UniProt P35922)
Technique: RNA Bind-n-Seq
Form: RNA
Medium: in vitro
Tested at: 200 nM
Notes: whole 134-nt RNA, ends assumed
Together with: 150 mM KCl
Baseline: input library
Direction: higher = stronger binding
Quantity: log2 enrichment
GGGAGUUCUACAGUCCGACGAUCUCAAGUCCUGUGCUACACAUCGUAUGUACCGAAUCGGGAGGGUUUGGGUUUGGGAAAGUAUUAUGUUACGCCGUUCGGAUCUGCACUUCCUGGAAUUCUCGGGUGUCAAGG: 1.38
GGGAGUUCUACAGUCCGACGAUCUCAGAAGGUCUUUUAAGUCUGACCACCCAGCUUGUCAAGGAAAAACUCUCCACCUGUGAAGCAGAGGACAUCGCCACCUAUGAGCAGAAUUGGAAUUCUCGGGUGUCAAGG: 0.736
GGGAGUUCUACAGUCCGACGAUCACCAUGCAGGUGGGCAUCUUUGGGAAGUGGGGCAAGGGGGGGAUAGGGAGGGGGGUAACACUUUCGGAACAGGUGGUCCCAGGUCGUUUCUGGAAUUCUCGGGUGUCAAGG: 1.28
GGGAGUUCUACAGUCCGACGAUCAGUCCUGUGCUACACAUCGUAUGUACCGAAUCAAAUUUAAACCCCCAAACCCCCAAAAAAGUAUUAUGUUACGCCGUUCGGAUCUGCACUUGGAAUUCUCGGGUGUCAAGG: -0.328
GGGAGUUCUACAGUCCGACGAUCAGUCCUGUGCUACACAUCGUAUGUACCGAAUCGGGAAAAAGGGUUUUUUUGGGAGGGAAAGUAUUAUGUUACGCCGUUCGGAUCUGCACUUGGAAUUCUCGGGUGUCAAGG: 0.474
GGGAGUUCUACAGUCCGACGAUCUCCUGUGCUACACAUCGUAUGUACCGAAUCAAACCCCCCCAAAUUUUUUUAAACCCAAAAAAGUAUUAUGUUACGCCGUUCGGAUCUGCAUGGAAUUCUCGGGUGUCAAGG: 0.302
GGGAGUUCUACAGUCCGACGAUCUUCACACCAAGCUGGGGAACAUCAAGACCUUAAACCUGGCAGGCAACCUCCUAGAGAGUCUGAGUGGCCUGCACAAGCUCUACUCACUGGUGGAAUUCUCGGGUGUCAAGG: -1.24
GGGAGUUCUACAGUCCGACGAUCUAACUUUAGAGGAGGAUCUGAUGGAUAUGGCAGUGGACGUGGAUUUGGGGAUGGCUAUAAUGGGUAUGGAGGAGGGCCUGGAGGUGGCAAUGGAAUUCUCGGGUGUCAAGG: 0.516

Block 7
Target: Cyclic AMP-dependent transcription factor ATF-1, full length (ATF1, Homo sapiens, UniProt P18846, residues 1-271)
Technique: protein-binding microarray
Form: hairpin DNA
Medium: in vitro
Tested at: not given
Notes: whole hairpin DNA, median over replicate spots
Baseline: not given
Direction: higher = stronger binding
Quantity: median fluorescence
Construct (chain): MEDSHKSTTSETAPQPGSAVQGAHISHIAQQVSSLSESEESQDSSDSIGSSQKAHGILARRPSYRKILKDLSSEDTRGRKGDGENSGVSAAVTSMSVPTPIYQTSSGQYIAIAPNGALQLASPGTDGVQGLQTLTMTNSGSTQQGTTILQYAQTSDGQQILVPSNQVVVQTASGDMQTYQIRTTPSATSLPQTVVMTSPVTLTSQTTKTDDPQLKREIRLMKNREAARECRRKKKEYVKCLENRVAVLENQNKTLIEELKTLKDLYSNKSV
GAGGCCGACGACGTCGTGCCTCCTGGCACGACGTCGTCGGCCTCACACTC (5mC at 9 12 15 29 35): 3420 a.u.
GAGGCCGACGACGTCGTGCCTCCTGGCACGACGTCGTCGGCCTCACACTC (5mC at 9 29 35): 5210 a.u.
GAGGCCGACGACGTCGTGCCTCCTGGCACGACGTCGTCGGCCTCACACTC (5mC at 9 15 35): 3660 a.u.
